Results of several laboratories.
Each numbered part is a random draw from the data of one study; scales do not carry over between parts. Substitutions count along the parent as printed.

Block 1
Target: CCNE1, cyclin fold, Cln2 fusion (human)
Method: yeast growth competition, sequencing
Matrix: yeast
Notes: strong parent motif
Baseline: not given
Direction: higher = stronger binding
Endpoint: normalised enrichment score
Starting sequence: BRCA2 docking peptide (human); PSIKRNLLNEFDR
R13H: 1.37
D12C: 1.31
F11N: 0.0568
N9F: 1.4
N9T: 1.43
S2N: 1.17
P1V: 2.06
E10R: 0.392
R5W: 0.834
S2E: 0.417
K4M: 0.888
I3D: -0.318
L8C: 1.11
S2Q: 1.67
N6Y: 0.414
L8R: -1.17
L8I: 1.78
N6E: 0.604
L7D: 0.134
R5S: 0.778
N6V: 0.983
F11Y: 0.901
R5K F11L: -0.37

Block 2
Target: Ras GTPase-activating protein-binding protein 1, full length (G3BP1, Homo sapiens, UniProt Q13283)
Sequence of UniProt Q13283 (whole entry, looked up): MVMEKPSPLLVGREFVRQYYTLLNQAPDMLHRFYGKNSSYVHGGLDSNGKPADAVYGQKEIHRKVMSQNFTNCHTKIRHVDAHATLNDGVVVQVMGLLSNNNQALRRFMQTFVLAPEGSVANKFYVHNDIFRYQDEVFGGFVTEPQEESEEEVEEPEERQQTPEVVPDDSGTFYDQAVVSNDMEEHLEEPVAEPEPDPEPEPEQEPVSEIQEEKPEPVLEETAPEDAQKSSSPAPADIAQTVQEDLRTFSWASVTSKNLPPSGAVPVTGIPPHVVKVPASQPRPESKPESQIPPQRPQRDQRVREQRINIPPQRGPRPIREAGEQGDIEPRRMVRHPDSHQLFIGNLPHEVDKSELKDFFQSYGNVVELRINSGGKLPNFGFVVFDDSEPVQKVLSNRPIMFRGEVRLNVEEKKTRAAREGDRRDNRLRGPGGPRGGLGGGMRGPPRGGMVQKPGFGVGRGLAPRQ
Method: RNA Bind-n-Seq
Form: RNA
Matrix: in vitro
Tested at: 200 nM
Notes: whole 134-nt RNA, ends assumed
With: 150 mM KCl
Baseline: input library
Direction: higher = stronger binding
Endpoint: log2 enrichment
All sequences stand within: GGGAGUUCUACAGUCCGACGAUC … UGGAAUUCUCGGGUGUCAAGG
UGGCCCUGGUGGCAUGCGGGGAGGAAGAGGUGGCCUCAUGGAUCGUGGUGGUCCCGGUGGAAUGUUCAGAGGUGGCCGUGGUGGAGUCAG: 0.102
GUCCUGUGCUACACAUCGUAUGUACCGAAUCGGGGCCCCCGGGCCCCCGGGCCCCCGGGAAAGUAUUAUGUUACGCCGUUCGGAUCUGCA: -0.757
CACAGACAACACGCACCCACACAGACACAGAGGGAAGGGGUUGGGAUGGGGACAGGGUGCACAGCAGGGCGGGGUUGGACCCCAGCCCCU: 1.8
GCAGGAAGUAAAAACAAAUGGAAAUGCUUCGGAUAGUGGCAGGGGUGGGGGUUGCUAAGGAAAGGGUGGGAUGGGAGUGGGUAAAGGGUU: 0.911
UCCUGUGCUACACAUCGUAUGUACCGAAUCGGGGUUUUUUGGGGUUUUUUGGUUUUUUGGAAAGUAUUAUGUUACGCCGUUCGGAUCUGC: -0.202
CACAGACAACACGCACCCACACAGACACAGAGGGAUGGGGUUGGGAUGGGGACAGGGUGCACAGCAGGGCGGGGUAGGACCCCAGCCCCU: 1.83
CCUGUGCUACACAUCGUAUGUACCGAAUCGGGGCCCCCCGGCCCCCCGGGCCCCCCGGGGAAAGUAUUAUGUUACGCCGUUCGGAUCUGC: -0.432
GUCCUGUGCUACACAUCGUAUGUACCGAAUCGGCCCCCGGCCCCCGGGGCCCCCGGGGAAAGUAUUAUGUUACGCCGUUCGGAUCUGCAC: -0.615
UGUGCUACACAUCGUAUGUACCGAAUCGGGGUUUUUUUGGGUUUUUUUGGGGUUUUUUUGGGAAAGUAUUAUGUUACGCCGUUCGGAUCU: -0.759
CCUCAAGUCCUGUGCUACACAUCGUAUGUACCGAAUCGGGGAGGAGGGGAGGAAAGUAUUAUGUUACGCCGUUCGGAUCUGCACUUCCAG: 0.658
ACCAUGCAGGUGGGCAUCUUUGGGAAGUGGGGCAAGGGGCGGAUAGGGAGGGGGGUAACACUUUGGGAACAGGUGGUCCCAGGUCGUUUC: 1.11
CACAGACAACACGCACCCACACAGACACAGAGGGAAGGGGUUGGGAUGGGGACAGGGUGCACAGCGGGGCGGGGUAGGACCCCAGCCCCU: 1.77
AGUCCUGUGCUACACAUCGUAUGUACCGAAUCGGGUGGGAAAAAGGGUUUUUUUGGGAAAGUAUUAUGUUACGCCGUUCGGAUCUGCACU: -0.14
UAACUUUAGAGGAGGAUCUGAUGGAUAUGGCAGUGGACGUGGAUUUGGGGAUGGGUAUAAUGGGUAUGGAGGAGGACCUGGAGGUGGCAA: 0.73

Block 3
Target: Histone acetyltransferase KAT6A, both winged helices, GST fusion (KAT6A, Homo sapiens, UniProt Q92794, residues 1-181)
Method: protein binding microarray
Form: double-stranded DNA, one strand shown
Matrix: in vitro
Tested at: not given
Notes: 8-mer, flanks averaged, mean of 2 arrays, mostly near background
Baseline: not given
Direction: higher = stronger binding
Endpoint: E-score
Construct (chain): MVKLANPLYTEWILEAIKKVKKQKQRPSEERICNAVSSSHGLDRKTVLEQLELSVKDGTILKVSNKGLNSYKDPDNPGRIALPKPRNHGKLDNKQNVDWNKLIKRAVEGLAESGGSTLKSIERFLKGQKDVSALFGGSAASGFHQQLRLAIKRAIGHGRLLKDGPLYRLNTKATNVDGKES
ACGAGATC: -0.0187
CCTTCTGA: -0.244
ACACGAGT: 0.0527
CCGCGCAG: 0.336
TTAGGAAA: -0.196
CCGGTGTA: 0.19
TGTGAAAA: -0.0496
CTACCAGA: -0.0915
GGGTCCGA: 0.142
CATTATCG: 0.0163
GTGGTATA: -0.118
AAGGGGTC: -0.314
AGAGCATC: -0.195
CCGATGCA: 0.0789
ACTCCTAC: -0.183
ACGCAAAC: 0.109
ATGGTATG: -0.0598
ACGACCTG: -0.0601
CTGACGTA: 0.000535
GACATTGC: 0.00419
ACCCCAAA: -0.197
GCTGAAAC: 0.0721
GATTTAGC: 0.0629
AATTATTC: -0.0368

Block 4
Target: POU, POU domain (Salpingoeca helianthica)
Method: Spec-seq
Form: double-stranded DNA, one strand shown
Matrix: in vitro
Tested at: not given
Notes: whole probe, mean of replicates
Baseline: not given
Direction: lower = stronger binding
Endpoint: relative binding energy
All sequences stand within: GAGTCGTCTCGTCAGCAC … CCGTAGAGCACTCAGGTC
Construct (chain): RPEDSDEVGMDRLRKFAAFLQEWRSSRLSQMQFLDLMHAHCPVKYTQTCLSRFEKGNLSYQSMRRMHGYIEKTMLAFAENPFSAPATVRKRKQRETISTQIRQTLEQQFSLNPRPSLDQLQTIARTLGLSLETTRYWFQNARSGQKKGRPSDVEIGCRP
ACCTTAAT: 0.527 ln ratio
ATTGAGAT: 1.36 ln ratio
CCTTTAAT: 0.0458 ln ratio
ATGCGGAC: 1.37 ln ratio
TTTCTAAT: 0.523 ln ratio
ATCGAGAT: 1.49 ln ratio
ATGCCGAG: 2.23 ln ratio
ATGCCCCG: 1.3 ln ratio
ATTTCTAT: 0.976 ln ratio
ATGGAGAT: 1.25 ln ratio
ATGCCAAG: 1.09 ln ratio
ATCTGCAT: 1.22 ln ratio
TGCGTAAT: 0.616 ln ratio
GTGCTAAT: 0.68 ln ratio
ATGCGATA: 0.927 ln ratio
ATGCTTAC: 1.19 ln ratio

Block 5
Target: Centromere-binding protein 1, full length, His-tagged (CBF1, Saccharomyces cerevisiae, UniProt P17106, residues 1-351)
Sequence of UniProt P17106 (whole entry, looked up): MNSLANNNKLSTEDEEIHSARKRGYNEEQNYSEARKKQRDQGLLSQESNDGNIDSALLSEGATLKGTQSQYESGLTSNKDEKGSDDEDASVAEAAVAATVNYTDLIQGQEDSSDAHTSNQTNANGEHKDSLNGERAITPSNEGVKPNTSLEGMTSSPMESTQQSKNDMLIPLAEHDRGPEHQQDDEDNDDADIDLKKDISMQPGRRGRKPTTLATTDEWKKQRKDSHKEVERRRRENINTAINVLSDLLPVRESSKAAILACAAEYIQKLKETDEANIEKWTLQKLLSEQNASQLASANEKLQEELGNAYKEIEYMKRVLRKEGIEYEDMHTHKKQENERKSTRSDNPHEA
Method: competition protein-binding microarray
Form: double-stranded DNA, one strand shown
Matrix: in vitro
Tested at: 2 µM
Notes: whole 60-bp probe, lowest competitor level
With: Pho4 competitor, 0.05 µM
Direction: higher = stronger binding
Endpoint: fluorescence intensity
All sequences stand within: … GTCTTGATTCGCTTGACGCTGCTG
TCGGTTGTCCAAACCCATGTGGTGCTGGTGGCGGAA: 74.4 a.u.
AAAGCGGTAATTTGCAGTGTGGGTGCAGATATCTAT: 70.2 a.u.
GGGATCAAGACCCATCTCGTGCTTTATACCCGGGTC: 104 a.u.
ATTCAATGTCGTTATGACCTGCTCGGGATGTTCTGG: 70 a.u.
TTGACCGATTTTCTGATCATGCAAAACTTTAGAGCT: 107 a.u.
TAGTCGGAGTAGGCACACAATTCAGGGTTGTTGATC: 92.4 a.u.
GTCTTGTCTCATTGGTTGGTGGGTGTCCCCACTTCA: 87.3 a.u.
CTAACGAAGGTTTGACTTGTGGGTGACAAGCCAAGT: 82.1 a.u.
CGGGGTTAAGTTTGCACTGTGGGTGGCTTGCAGCAG: 75.6 a.u.
AAATGAACTGCCAATAACATGCAAGAATGAAGACGG: 60.3 a.u.
TGGCATGAGTGGCAGCATGTGCCTCATATCCATTGG: 101 a.u.
CTTTGCCTTCTTCTCCACATGGAATTACTATTTTCA: 67.9 a.u.
TTTAATTTAATTCGGCATGTGGCCGGCAGGGTAATG: 107 a.u.
AGGTGCCTTCGGTAACATGTGTCTTGGTGGTCGTAT: 86.3 a.u.
TTGTCTCACTATTAACGCGTGGCCGGGTAAGACCCA: 68.8 a.u.
GACGACCGTACTTTGCACGTGGCCGCAGACACATTT: 1370 a.u.
TTTGGCGCCAATGAACTCGTGGTCGGGACCTCCACC: 97.4 a.u.
AAATCATGAGAAGCGCACATGTCGAGATATCAATAG: 146 a.u.
CTAACGAAGGTTTGATCCGTGGGTGACAAGCCAAGT: 59.7 a.u.
CTAACGAAGGTTTGTCACTTTACTTACAAGCCAAGT: 83 a.u.
CTAACGAAGGTTTGTGGGGTGGGTGACAAGCCAAGT: 72.2 a.u.
AGTATAGAGTTTCGGCACGGGTGGCAGCGTTCAAAG: 73.4 a.u.
TTTGGGAAGACTTAGCACGTTATATACTATTAATGA: 201 a.u.
AAAGCGGTAATTTTTCACGTGTGATCAAATATCTAT: 1200 a.u.
CGGGGTTAAGTTTTTCACGTGAAATGCTTGCAGCAG: 672 a.u.

Block 6
Target: CREBL2, bZIP domain (human)
Method: DHFR protein complementation
Matrix: yeast
Notes: single substitutions, most at no-binding floor
Baseline: wild-type JUN-FOS pair
Direction: higher = stronger binding
Endpoint: binding fitness
Starting sequence: JUN, bZIP domain (human); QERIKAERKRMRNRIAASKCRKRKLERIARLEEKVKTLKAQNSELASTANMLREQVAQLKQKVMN; partner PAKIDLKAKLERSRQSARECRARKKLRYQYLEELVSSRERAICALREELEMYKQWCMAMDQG
K34D: -1.49 natural log
M51E: -1.52 natural log
L52D: -1.59 natural log
S47Y: -1.56 natural log
S43Q: -1.25 natural log
V56F: -1.49 natural log
K34V: -1.51 natural log
K34W: -1.58 natural log
K36R: -1.42 natural log
T48Y: -1.52 natural log
S47P: -1.55 natural log
K39R: -1.37 natural log
L38P: -1.57 natural log
L31D: -1.57 natural log
R53C: -1.44 natural log
S43R: -1.44 natural log
L38C: -1.55 natural log
E44K: -1.57 natural log

Mixed results
PhoQ, residues 284 288 289 292 302 303 TGYLSA — fold induction (PhoP, residues 12 14 15 18 19 NIMAP (Escherichia coli, UniProt P23836); Sort-seq, item: YFP reporter; E. coli; PhoQ-PhoP variant library, with: 10 µM Mg2+; baseline: high Mg2+ state, higher = stronger signaling): 0.951
